{"data": "Measurements gathered from unrelated publications", "note": "Parts stem from different laboratories: compare values within a part only. Positions count from the first letter of the parent shown."}
{"data": "Series 1", "target": "NFE2L3, bZIP domain (human)", "technique": "DHFR protein complementation", "matrix": "yeast", "notes": "single substitutions, most at no-binding floor", "relative to": "wild-type JUN-FOS pair", "reading": "higher = stronger binding", "starting sequence": "JUN, bZIP domain (human); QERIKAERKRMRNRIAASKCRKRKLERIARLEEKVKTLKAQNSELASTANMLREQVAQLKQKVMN; partner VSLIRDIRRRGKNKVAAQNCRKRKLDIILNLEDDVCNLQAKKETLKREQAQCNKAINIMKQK"}
{"Change": "E44V", "binding fitness": "-1.52 natural log"}
{"Change": "I28R", "binding fitness": "-1.58 natural log"}
{"Change": "R30L", "binding fitness": "-1.51 natural log"}
{"Change": "S47K", "binding fitness": "-1.13 natural log"}
{"Change": "V35C", "binding fitness": "-1.26 natural log"}
{"Change": "L59G", "binding fitness": "-1.54 natural log"}
{"Change": "K39C", "binding fitness": "-1.48 natural log"}
{"Change": "T37Y", "binding fitness": "-1.44 natural log"}
{"Change": "L38P", "binding fitness": "-1.48 natural log"}
{"Change": "E33S", "binding fitness": "-1.52 natural log"}
{"Change": "S43C", "binding fitness": "-1.24 natural log"}
{"Change": "L45V", "binding fitness": "-1.47 natural log"}
{"Change": "R30W", "binding fitness": "-1.56 natural log"}
{"Change": "E54I", "binding fitness": "-1.64 natural log"}
{"Change": "E32G", "binding fitness": "-1.44 natural log"}
{"data": "Series 2", "target": "CCND3, cyclin fold, Cln2 fusion (human)", "technique": "yeast growth competition, sequencing", "matrix": "yeast", "notes": "weak parent motif", "relative to": "not given", "reading": "higher = stronger binding", "starting sequence": "PKN2 docking peptide (human); VSAVRKLDFSDTM; partner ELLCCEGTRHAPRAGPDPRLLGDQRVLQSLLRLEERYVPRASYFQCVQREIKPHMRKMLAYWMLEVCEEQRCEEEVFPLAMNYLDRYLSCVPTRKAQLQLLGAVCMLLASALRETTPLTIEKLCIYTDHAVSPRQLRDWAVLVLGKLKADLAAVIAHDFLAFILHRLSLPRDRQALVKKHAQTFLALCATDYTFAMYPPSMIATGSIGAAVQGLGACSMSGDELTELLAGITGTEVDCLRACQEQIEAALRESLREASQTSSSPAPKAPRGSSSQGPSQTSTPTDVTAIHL"}
{"Change": "VSAVRKLDFADTM [S10A]", "normalised enrichment score": 1.13}
{"Change": "VCAVRKLDFSDTM [S2C]", "normalised enrichment score": 0.733}
{"Change": "VSAFRKLDFSDTM [V4F]", "normalised enrichment score": 0.39}
{"Change": "VSAVRKLDFSDDM [T12D]", "normalised enrichment score": 1.46}
{"Change": "VSAVRKLNFSDTM [D8N]", "normalised enrichment score": 0.765}
{"Change": "VSAVRELDFSDTM [K6E]", "normalised enrichment score": 0.427}
{"Change": "VSAVRKLDFSDAM [T12A]", "normalised enrichment score": 1.18}
{"Change": "VSACRKLDFSDTM [V4C]", "normalised enrichment score": 2.02}
{"Change": "VSAVRKLDKSDTM [F9K]", "normalised enrichment score": 0.324}
{"Change": "VSAVRRLDFSDTM [K6R]", "normalised enrichment score": 1.4}
{"Change": "VSAVRKLDFSQTM [D11Q]", "normalised enrichment score": 0.488}
{"Change": "VSAKRKLDFSDTM [V4K]", "normalised enrichment score": 0.975}
{"Change": "VTAVRKLDFSDTM [S2T]", "normalised enrichment score": 1.26}
{"Change": "VSAVRKLDFSPTM [D11P]", "normalised enrichment score": 0.807}
{"Change": "VSAVRKLDISDTM [F9I]", "normalised enrichment score": 0.145}
{"Change": "VSAVRKRDFSDTM [L7R]", "normalised enrichment score": 0.0454}
{"Change": "VSAVYKLDFSDTM [R5Y]", "normalised enrichment score": 0.133}
{"Change": "VWAVRKLDFSDTM [S2W]", "normalised enrichment score": 0.54}
{"Change": "VSATRKLDFSDTM [V4T]", "normalised enrichment score": 0.123}
{"Change": "VSAVNKLDFSDTM [R5N]", "normalised enrichment score": -0.08}
{"Change": "VSAVRKLDFSDVM [T12V]", "normalised enrichment score": 0.435}
{"Change": "VSYVRKLDFSDTM [A3Y]", "normalised enrichment score": -0.0991}
{"Change": "VSAVRCLDFSDTM [K6C]", "normalised enrichment score": 0.594}
{"Change": "VVAVRKLDFSDTM [S2V]", "normalised enrichment score": 0.268}
{"Change": "VSAVAKLDFSDTM [R5A]", "normalised enrichment score": 0.056}
{"data": "Series 3", "target": "ABI1, truncated, D143A, DHFR fusion (Arabidopsis thaliana)", "technique": "DHFR PCA, deep sequencing", "matrix": "yeast", "notes": "methotrexate growth selection, single substitutions", "with": "(+)-ABA 0.39 µM", "relative to": "wild-type fitted maximum", "reading": "higher = stronger binding", "starting sequence": "PYL1, truncated, DHFR fusion (Arabidopsis thaliana); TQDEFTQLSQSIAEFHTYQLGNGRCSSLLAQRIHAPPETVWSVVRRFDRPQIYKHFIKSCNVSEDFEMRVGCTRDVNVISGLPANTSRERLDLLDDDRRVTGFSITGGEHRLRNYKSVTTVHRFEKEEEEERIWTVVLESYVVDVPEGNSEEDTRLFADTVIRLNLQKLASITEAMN"}
{"Change": "G23Q", "relative binding score": "11%"}
{"Change": "A30R", "relative binding score": "17.5%"}
{"Change": "T120N", "relative binding score": "-4.52%"}
{"Change": "T73M", "relative binding score": "55.2%"}
{"Change": "T119D", "relative binding score": "-15.5%"}
{"Change": "R163K", "relative binding score": "54.3%"}
{"Change": "L164M", "relative binding score": "50.9%"}
{"Change": "A13C", "relative binding score": "19.5%"}
{"Change": "I172R", "relative binding score": "6.51%"}
{"Change": "N149A", "relative binding score": "54.4%"}
{"Change": "Q167C", "relative binding score": "22.8%"}
{"Change": "L29C", "relative binding score": "18.4%"}
{"Change": "R111S", "relative binding score": "-2.19%"}
{"Change": "E152W", "relative binding score": "4.94%"}
{"data": "Series 4", "target": "RING finger protein unkempt homolog, zinc fingers 1-6, GST-SBP tag (UNK, Homo sapiens, UniProt Q9C0B0, residues 30-357)", "technique": "RNA Bind-n-Seq", "form": "RNA", "matrix": "in vitro", "tested at": "not given", "notes": "RNA with constant flanks, ends assumed", "relative to": "input RNA pool", "reading": "higher = stronger binding", "constant ends, left off below": "GGGAGUUCUACAGUCCGACGAUC … CAACAGAGGAUUGAGCAUCA", "UniProt Q9C0B0, sequence (30-357, looked up)": "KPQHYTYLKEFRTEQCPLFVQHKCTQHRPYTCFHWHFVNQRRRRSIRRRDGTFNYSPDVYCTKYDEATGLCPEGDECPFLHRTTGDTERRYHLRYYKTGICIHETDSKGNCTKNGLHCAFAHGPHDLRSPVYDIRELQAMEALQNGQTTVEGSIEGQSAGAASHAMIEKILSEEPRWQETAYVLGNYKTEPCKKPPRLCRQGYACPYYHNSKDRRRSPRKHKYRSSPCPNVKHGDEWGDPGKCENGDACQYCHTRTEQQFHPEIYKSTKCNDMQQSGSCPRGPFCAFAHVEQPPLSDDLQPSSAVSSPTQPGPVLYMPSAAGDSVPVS"}
{"Strand": "GAAACUAUUCCUAAAGAGGAGAGAGCUGAGAAGGAUGCUCGGAGACCGUCUCUCGAGAAACACCGAAAAGAAAAGCCUUUUAAAACCGGGAGAGGCAGAAUUUCCACUCCUGAAAGAAAA", "bound/input enrichment [ratio]": 0.196}
{"Strand": "UAACUCUAAAAGGGAGGUGCUUGGGAUUAAGGUGACAGUCCACUUGAUCCUUUUCUUUGUUUCCGUGUGAAUUUCAGCAGCUCCAUCUGUCUUCAUGAUUGUACUUGAGCAGUAUUAGCU", "bound/input enrichment [ratio]": 0.201}
{"Strand": "UAACUUAUUUUUCAUCAGAGUAUGACUGAAACAUGCUUCUACCAAAUACAAUAUAAAGAAUCCGGCCGUCCUAAUGCCUUUCCUAUAUUAUUUUUUUUUCCUUUUCCACACAAGACAACA", "bound/input enrichment [ratio]": 1.83}
{"Strand": "GCGGAAUAAUAAGCCGGGAUCUACCAUACCCAUUGACUAACUAUGGAAGAUUAUACCAAAACCGAGAAAAUUGGAGAAGGUACCUAUGGAGUUGUGUAUAAGGGUAGACACAAAACUACA", "bound/input enrichment [ratio]": 0.194}
{"Strand": "ACCCAAGUUGGAGUCAUUCGUUGCCCAGUUUGCAGCCAAGAAUGUGCAGAGAGACACAUCACCGAUAACUUUUUUGUGAAGGACACUACUGAGGUUCCCAGCAGUACAGUAGAAAAGUCA", "bound/input enrichment [ratio]": 0.298}
{"data": "Further values, each from its own experiment"}
{"Molecule": "PhoQ, residues 284 288 289 292 302 303 NLSRDF", "target": "PhoP, residues 12 14 15 18 19 NYFTV (Escherichia coli, UniProt P23836)", "assay": "Sort-seq, item: YFP reporter", "system": "E. coli", "conditions": "PhoQ-PhoP variant library, with: 10 µM Mg2+", "how to read": "relative to: high Mg2+ state, higher = stronger signaling", "endpoint": "fold induction", "result": 9.01}
{"note": "For quick reference, copied from above (series 3):"}
{"Change": "T73M", "relative binding score": "55.2%"}
{"Change": "T119D", "relative binding score": "-15.5%"}
{"Change": "R163K", "relative binding score": "54.3%"}
{"Change": "L164M", "relative binding score": "50.9%"}
{"Change": "A13C", "relative binding score": "19.5%"}
{"Change": "I172R", "relative binding score": "6.51%"}
{"Change": "N149A", "relative binding score": "54.4%"}
